Assay results from different studies.
A part holds a random share of what one study measured. Values joined by “and” are separate records of one study, mostly repeats; a detail may differ.

Series 1
Compound: CC(C)(C(=O)O)[C@H](NC(=O)Cc1cccc(I)c1)c1ccc2oc(=O)[nH]c2c1
Method: Incucyte 3D growth
Concentration: 30 µM
Direction: higher = more growth
| cell line | conditions | spheroid area |
| --- | --- | --- |
| A375 | 102 h | 5.29e+07 a.u. and 7.07e+07 a.u. and 7.39e+07 a.u. and 5.5e+07 a.u. and 6.73e+07 a.u. and 6.04e+07 a.u. |
| KP-4 | 228 h | 2e+07 a.u. and 4.54e+07 a.u. and 6.93e+07 a.u. and 4.38e+07 a.u. and 3.95e+07 a.u. and 4.49e+07 a.u. |
| NCI-H358 | 138 h | 7.19e+06 a.u. and 7.66e+06 a.u. and 6.1e+06 a.u. and 5.13e+06 a.u. and 5.02e+06 a.u. and 5.52e+06 a.u. |
| IPC-298 | 258 h | 3.36e+07 a.u. and 3.82e+07 a.u. and 2.72e+07 a.u. and 4.47e+07 a.u. and 2.63e+07 a.u. and 3.08e+07 a.u. |
| A375 | 198 h | 1.2e+08 a.u. and 1.38e+08 a.u. and 1.19e+08 a.u. and 1.15e+08 a.u. and 1.02e+08 a.u. |
| KP-4 | 138 h | 2.02e+07 a.u. and 2.07e+07 a.u. and 2.12e+07 a.u. and 1.93e+07 a.u. and 1.61e+07 a.u. |

Series 2
Cell line: mouse MPNST tumor cells
Method: high-content nuclear imaging
Item: cell number
Concentration: 10 µM
Time: 12 h
Setting: mean of 2 replicates
Reference: plate mean
Direction: higher = more cells
| SMILES | nuclei count |
| --- | --- |
| CCCNc1ccc2ncc(-c3ccc4[nH]ncc4c3)n2n1 | -4.85 z-score |
| CC(CC(=O)OC(C)(C)C)NC(=O)C1=NOC(C(O)(C(F)(F)F)C(F)(F)F)C1 (centres unmarked) | 1.46 z-score |
| CC(C)[C@H]1CC[C@H](C(=O)N[C@H](Cc2ccccc2)C(=O)O)CC1 | 0.41 z-score and 1.12 z-score and 0.702 z-score |
| O=S(=O)(c1cccc2c(Cl)cccc12)N1CCCNCC1 | -3.36 z-score |
| CC(CN(C)C)CN1c2ccccc2Sc2ccccc21 (centres unmarked) | -1.98 z-score |
| CCC(=O)O[C@]1(C(=O)CCl)[C@@H](C)C[C@H]2[C@@H]3CCC4=CC(=O)C=C[C@]4(C)[C@@]3(F)[C@@H](O)C[C@@]21C | 5.22 z-score |
| Cc1cccc(S(=O)(=O)N(C)[C@H](C)CCN2CCC(C)CC2)c1 | -0.339 z-score |
| O=C(Nc1ccc(Cl)cc1)C1CCCN(C(=O)c2cccc(-c3ccco3)c2)C1 (centres unmarked) | 3.43 z-score |
| CN1CCN(C(=O)c2cc3cc(Cl)ccc3[nH]2)CC1 | 2.63 z-score |

Series 3
Target: Cyclin-dependent kinase 6, with cyclin D3 (CDK6, Homo sapiens, UniProt Q00534)
UniProt Q00534, sequence (whole entry, looked up): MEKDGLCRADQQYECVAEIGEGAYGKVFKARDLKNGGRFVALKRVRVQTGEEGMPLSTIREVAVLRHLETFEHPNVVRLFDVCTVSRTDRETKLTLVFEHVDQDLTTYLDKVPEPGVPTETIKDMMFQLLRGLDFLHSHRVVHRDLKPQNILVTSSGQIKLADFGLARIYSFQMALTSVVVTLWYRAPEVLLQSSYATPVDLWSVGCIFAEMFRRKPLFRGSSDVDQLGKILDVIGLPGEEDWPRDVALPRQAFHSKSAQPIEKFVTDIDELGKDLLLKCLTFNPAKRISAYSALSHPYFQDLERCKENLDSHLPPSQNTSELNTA
Read-out: enzyme activity
Mode: inhibitor
Concentration: 0.5 µM
Reference: control
| SMILES | remaining activity |
| --- | --- |
| COc1cc2ncnc(Nc3ccc(F)c(Cl)c3)c2cc1OCCCN1CCOCC1 | 118% |
| CN(C)c1ccc(C=C2C(=O)Nc3ccccc32)cc1 | 96.4% |
| Cc1ccc(Nc2nccc(N(C)c3ccc4c(C)n(C)nc4c3)n2)cc1S(N)(=O)=O | 96.1% |
| O=S(=O)(c1cccc2cnccc12)N1CCCNCC1 | 95.8% |
| O=C(CCCc1ccc(-c2ccccc2F)cc1)Nc1ccc(O)cc1 | 103% |
| COc1ccc(C(=O)Nc2sc3c(c2C(N)=O)CCCC3)cc1OC | 94.9% |
| O=C(Nc1cccc(Nc2cc(Nc3cccc(C(F)(F)F)c3)ncn2)c1)C1CC1 | 102% |
| Cn1c2ccccc2c2c3c(c4c5ccccc5n(CCC#N)c4c21)CNC3=O | 52.1% |
| OCC(O)CCON=C1C(c2c(O)[nH]c3ccccc23)=Nc2ccccc21 (centres unmarked) | 10.2% |
| Cc1nc(-c2ccccc2)c(-c2ccncc2)o1 | 109% |
| COc1cc2ncnc(Nc3ccc(Oc4ccccc4)cc3)c2cc1OC | 108% |
| COc1cc2nccc(Oc3ccc(NC(=S)NC(=O)c4ccccc4C)cc3)c2cc1OC | 97.3% |
| C#Cc1cccc(Nc2ncnc3cc(OCCOC)c(OCCOC)cc23)c1 | 117% |
| CCOC(=O)c1c(C)[nH]c(/C=C2\C(=O)Nc3ccccc32)c1C | 84.7% |

Series 4
Cell line: sample D normal colon organoid
Method: CellTiter-Glo
Concentration: 1 µM
Setting: mean of replicates
Reference: DMSO
| Compound | viability |
| --- | --- |
| CC(=O)C1=C(C)N(c2cccc(C(F)(F)F)c2)C(=O)N[C@@H]1c1ccc(C#N)nc1 | 112% |
| O=C(O)[C@@H]1[C@@H](Cn2nnc3ccccc3c2=O)CC[C@H]1C(=O)c1ccc(OCCC2CCOCC2)cc1 | 127% |
| O=C(NC[C@@H]1[C@H]2CN(C(=O)OCc3cc(C(F)(F)F)cc(C(F)(F)F)c3)C[C@@H]12)c1ccc2[nH]nnc2c1 | 91.3% |
| O=C1NC(c2ccccn2)Sc2ccccc21 (centres unmarked) | 105% |
| Cn1nc(C(=O)NCc2ccc(C(=O)O)cc2)cc1-c1ccc2[nH]ccc2c1 | 131% |
| Cn1cc(Cl)c2c(Oc3c(F)cc(Nc4cc(Cl)nc(N)n4)cc3F)ccnc21 | 101% |
| Cc1c(Oc2ccc(F)cc2)c(OC(C)C)nn1-c1ccc(C2CC2)cn1 | 98.9% |
| Cc1ccc2[nH]c(CNCCCc3ccncc3)cc(=O)c2c1 | 103% |
| CCS(=O)(=O)c1cc2cc(C[C@](O)(CC(C)(C)c3ccc(F)cc3C(N)=O)C(F)(F)F)[nH]c2cn1 | 109% |
| CO[C@@H](C)c1c(Nc2ccc([C@@H](N(C)C(=O)C3CCS(=O)(=O)CC3)C(F)(F)F)cc2)cnc2cc(Cl)nn12 | 107% |
| Cc1c(C(=O)O)cc(-c2ccc(C3CCNCC3)cc2)c2ccc(-c3ccc(C(F)(F)F)cc3)cc12 | 114% |
| Cc1cc(NC(=O)c2cccc(S(F)(F)(F)(F)F)c2)cc(-n2ccn3nc(-c4cccnc4)cc23)c1 | 98.5% |
| O=C(NCc1ncc(C(F)(F)F)cc1Cl)c1ccc2c(c1)C1(CCS(=O)(=O)CC1)[C@@H](C1CC1)N2S(=O)(=O)c1ccc(F)cc1 | 119% |
| CNCc1ccccc1-c1csc([C@@H](C)Nc2nc(C)nc3cc(OC)c(OC)cc23)c1 | 65.9% |
| O=C(N1CCS(=O)(=O)CC1)N1C[C@H](c2ccc(OC(F)(F)F)cc2)C[C@H](c2nc(C3CC3)no2)C1 | 134% |

Excerpt of the above (series 4):
| Compound | viability |
| --- | --- |
| CNCc1ccccc1-c1csc([C@@H](C)Nc2nc(C)nc3cc(OC)c(OC)cc23)c1 | 65.9% |
| Cc1c(C(=O)O)cc(-c2ccc(C3CCNCC3)cc2)c2ccc(-c3ccc(C(F)(F)F)cc3)cc12 | 114% |
| CCS(=O)(=O)c1cc2cc(C[C@](O)(CC(C)(C)c3ccc(F)cc3C(N)=O)C(F)(F)F)[nH]c2cn1 | 109% |
| Cn1nc(C(=O)NCc2ccc(C(=O)O)cc2)cc1-c1ccc2[nH]ccc2c1 | 131% |
| Cn1cc(Cl)c2c(Oc3c(F)cc(Nc4cc(Cl)nc(N)n4)cc3F)ccnc21 | 101% |
| CO[C@@H](C)c1c(Nc2ccc([C@@H](N(C)C(=O)C3CCS(=O)(=O)CC3)C(F)(F)F)cc2)cnc2cc(Cl)nn12 | 107% |
